Measured values pooled from the literature.
Several values in a cell are separate wells, animals, samples, runs or records. Numbers after ± are the reported error.

Compound = CC(C)NCCCn1c(Sc2cc3c(cc2I)OCO3)nc2c(N)ncnc21; tested on = epichaperome; test = PU-PET; system = mouse, MDA-MB-468 xenograft, tumour; measurement = tumour residence half-time; value = 60 h
Compound = CS(C)(=O)=Nc1ccc(-c2ccc(-c3nc4cc(O[C@@H]5CO[C@H]6[C@@H]5OC[C@H]6O)[nH]c4cc3F)cc2)cc1; tested on = Na+/K+-ATPase; test = enzyme activity; setting = 10 µM; measurement = inhibition; value = 1%
Compound = CNC(=O)C[C@H](Cc1ccc(F)cc1)NC(=O)[C@@H](Cc1ccc(Cl)cc1Cl)NC(=O)[C@H](N)Cc1ccccc1C#N; tested on = human chymotrypsin; test = enzyme activity, inhibitor; system = PANC-1 cell lysate; measurement = IC50; value = > 10 µM
Compound = Cc1ccc2c(c1)nc(NC(=O)c1cccc(C(F)(F)F)c1)n2[C@H]1CC[C@H](N)CC1; tested on = Trypanosoma brucei CLK1 C215A; test = differential scanning fluorimetry; measurement = melting temperature; value = 40.1 °C and 40.2 °C and 40.8 °C
Compound = COc1ccccc1-c1n[nH]c2nc(N[C@H]3CC[C@H](NS(=O)(=O)CC(C)C)CC3)ncc12; tested on = Leishmania donovani LINJ.27.0510; test = bead binding competition; system = Leishmania donovani extract; setting = 20 µM; scale = relative to: vehicle; measurement = relative abundance; value = 0.84
Compound = Nc1ncc(-c2cc(-c3cnn(CC(F)(F)F)c3)ncc2F)nc1C(=O)NC1CNCC(F)C1 (stereo not shown); tested on = KIT V559D T670I; test = KINOMEscan; setting = 1 µM; measurement = remaining binding; value = 80%
Compound = O=C(O)COc1c2c(c(OCC(=O)O)c3c1C1CC3c3cc4c(cc31)C1CC4c3ccccc31)C1CC2c2cc3c(cc21)C1CC3c2ccccc21; tested on = sphingomyelin; test = 1H NMR titration; system = methanol-d4; setting = CH2-N(Me)3 signal; measurement = association constant; value = 17 ± 3 M⁻¹
Compound = O=C1NC2(CC2)COc2ncc(F)cc2[C@H]2COCCN2c2ccn3ncc1c3n2; system = Sprague-Dawley rat, female, spleen; setting = oral, 2.5 mg/kg/day, 4 weeks, end of treatment; measurement = organ-to-body weight ratio; value = 0.303 ± 0.075%
Compound = COc1ccccc1-c1n[nH]c2nc(NC3CCN(C(=O)Cc4ccc(F)cc4F)CC3)ncc12; tested on = HSPE1 LINJ.26.0590; test = bead competition pull-down; system = Leishmania extract; setting = 10 µM; scale = relative to: vehicle; measurement = relative captured amount; value = 0.79
Compound = CNc1nc(N[C@@H](CCO)c2ccccc2Cl)nc(N2CCN(C(=O)CCl)C(C(=O)NCC3CCNC3=O)C2)n1 (stereo partly shown); tested on = chymotrypsin, human; test = enzyme activity; measurement = IC50; value = > 50 µM
Compound = CSCC[C@H](NC(=O)[C@@H](N)CSC1CC(=O)N(CCNC(=O)COc2ccc(/C=C/C3=[N+]4C(=Cc5ccc(-c6cccs6)n5[B-]4(F)F)C=C3)cc2)C1=O)C(=O)N[C@@H](CCC(=O)O)C(=O)N[C@@H](Cc1ccccc1)C(=O)N[C@H](C(=O)N[C@@H](C)C(=O)N[C@@H](CCCCN)C(=O)N[C@@H](CC(C)C)C(=O)N[C@@H](Cc1ccccc1)C(=O)N[C@@H](CCCCN)C(=O)N[C@@H](Cc1ccccc1)C(=O)N[C@@H](Cc1ccccc1)C(=O)N[C@@H](CCCCN)C(=O)N[C@@H](CC(=O)O)C(=O)N[C@@H](CC(C)C)C(=O)N[C@@H](CC(C)C)C(=O)NCC(=O)N[C@@H](CCCCN)C(=O)N[C@@H](Cc1ccccc1)C(=O)N[C@@H](CC(C)C)C(=O)NCC(=O)N[C@@H](CC(N)=O)C(=O)N[C@@H](CC(N)=O)C(=O)O)C(C)C (stereo partly shown); tested on = mouse alpha-synuclein preformed fibrils; setting = 2 µM, 30 min, excitation 590 nm, added: 10 µM fibrils; measurement = fluorescence emission increase; value = 16 fold
Compound = CC[C@H](C)[C@@H]1NC(=O)CNC(=O)[C@H](CC(=O)O)NC(=O)[C@H](CC(=O)O)NC(=O)[C@@H]2CSSC[C@@H]3NC(=O)[C@H](Cc4c[nH]cn4)NC(=O)[C@H](CCCNC(=N)N)NC(=O)[C@H](CCCNC(=N)N)NC(=O)[C@@H](NC(=O)[C@H](CO)NC(=O)[C@@H](N)Cc4c[nH]cn4)CSSC[C@H](NC(=O)[C@H](C)NC(=O)[C@H](Cc4c[nH]c5ccccc45)NC(=O)CNC(=O)[C@H](CSSC[C@@H](C(=O)N[C@@H](CCCCN)C(=O)N4CCC[C@H]4C(=O)N[C@@H](CC(C)C)C(=O)N[C@@H](CCCNC(=N)N)C(=O)N[C@H](C(=O)O)C(C)C)NC1=O)NC(=O)[C@H](CCCNC(=N)N)NC(=O)[C@H](CCCNC(=N)N)NC(=O)[C@H](CC(N)=O)NC(=O)[C@H](CCC(=O)O)NC(=O)[C@H](Cc1c[nH]cn1)NC3=O)C(=O)N[C@@H](Cc1ccc(O)cc1)C(=O)N2; tested on = hKv1.5 human; setting = concentration not given; measurement = ion current; value = no effect
Compound = Cc1cc(C(=O)Nc2nc3cccc(C)c3n2[C@H]2CCCCN(C(=O)/C=C/CN(C)C)C2)ccn1; tested on = Trypanosoma brucei CLK1 C215A; test = differential scanning fluorimetry; measurement = melting temperature; value = 41.2 °C and 41.1 °C

For quick reference, copied from above:
Compound = CNc1nc(N[C@@H](CCO)c2ccccc2Cl)nc(N2CCN(C(=O)CCl)C(C(=O)NCC3CCNC3=O)C2)n1 (stereo partly shown); tested on = chymotrypsin, human; test = enzyme activity; measurement = IC50; value = > 50 µM
